Published values pooled from the literature.
A part holds a random share of what one study measured.

Sample 1
Target: Sal-like protein 4, full length isoform B (SALL4, Homo sapiens, UniProt Q9UJQ4-2, residues 1-616)
Method: universal PBM
Molecule type: double-stranded DNA, one strand shown
Sample: in vitro
Tested at: not given
Notes: 8-mer, flanks averaged, mean of replicates
Reading: higher = stronger binding
| Sequence | E-score |
| --- | --- |
| CGGTCGAG | -0.271 |
| GACTCGGA | -0.312 |
| AGACGCGA | -0.0761 |
| AAAGACGA | 0.117 |
| AGACTGGC | -0.18 |
| GCTATGGA | 0.0915 |
| AATTAAAT | 0.324 |
| CCCAGTAA | 0.0344 |
| GAATGTGA | 0.0433 |
| CCCACTGA | -0.216 |
| TACTAGGA | 0.0835 |
| ACGGCCGT | -0.388 |
| CCTCCCCG | -0.274 |
| TAAGGACA | -0.0642 |
| CATCTGTA | 0.188 |
| CCCATGCA | 0.101 |
| CATCGGAG | -0.178 |
| CATTAACC | 0.131 |
| GATTTAGA | 0.123 |
| CTACTACC | 0.0844 |
| TCCCTGCA | -0.192 |
| ACCCATCG | -0.102 |
| CTTGAGAA | 0.13 |
| AGTGTTGA | 0.0383 |
| CCCACGCG | -0.225 |

Sample 2
Target: Ras GTPase-activating protein-binding protein 1, full length (G3BP1, Homo sapiens, UniProt Q13283)
Chain of UniProt Q13283 (whole entry, looked up): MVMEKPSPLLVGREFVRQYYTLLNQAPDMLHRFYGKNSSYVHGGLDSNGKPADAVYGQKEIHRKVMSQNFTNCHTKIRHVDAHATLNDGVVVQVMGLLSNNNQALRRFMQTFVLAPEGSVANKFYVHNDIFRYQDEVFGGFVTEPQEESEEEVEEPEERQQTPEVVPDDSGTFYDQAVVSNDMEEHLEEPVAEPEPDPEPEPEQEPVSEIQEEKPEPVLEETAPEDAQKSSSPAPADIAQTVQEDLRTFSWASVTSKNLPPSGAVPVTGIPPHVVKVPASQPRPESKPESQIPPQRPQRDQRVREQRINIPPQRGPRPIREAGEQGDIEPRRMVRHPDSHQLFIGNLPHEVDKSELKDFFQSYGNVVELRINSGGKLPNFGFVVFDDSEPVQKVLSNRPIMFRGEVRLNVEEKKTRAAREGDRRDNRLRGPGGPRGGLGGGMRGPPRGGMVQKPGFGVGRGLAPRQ
Method: RNA Bind-n-Seq
Molecule type: RNA
Sample: in vitro
Tested at: 200 nM
Notes: whole 134-nt RNA, ends assumed
Together with: 150 mM LiCl
Relative to: input library
Reading: higher = stronger binding
Library: 7-deaza-guanosine replaces G
| Sequence | log2 enrichment |
| --- | --- |
| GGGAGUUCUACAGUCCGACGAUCUCCUCAAGUCCUGUGCUACACAUCGUAUGUACCGAAUCGGGUGGGGUGGUGGAAAGUAUUAUGUUACGCCGUUCGGAUCUGCACUUCCAGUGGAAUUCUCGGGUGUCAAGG | -0.446 |
| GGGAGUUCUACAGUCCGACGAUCCAAAGACAACACGCACCCACACAGACACAGAGGGAAGGGGUUGGGAUGGGGACAGGGUGCACAGCAGGGCGGGGUAGGACCCCAGCCCCUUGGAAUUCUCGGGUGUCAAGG | 0.471 |
| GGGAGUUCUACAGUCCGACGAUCCAAGUCCUGUGCUACACAUCGUAUGUACCGAAUCGGUUUUUGGAAAAAGGAAAGGAAAGUAUUAUGUUACGCCGUUCGGAUCUGCACUUCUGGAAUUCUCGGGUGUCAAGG | -1.12 |
| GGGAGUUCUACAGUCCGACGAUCCUGUGCUACACAUCGUAUGUACCGAAUCGGGGAAAAAAAGGGGAAAAAAAGGGAAAAAAAGGAAAGUAUUAUGUUACGCCGUUCGGAUCUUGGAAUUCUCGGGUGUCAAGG | 0.291 |
| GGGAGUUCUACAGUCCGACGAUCCUGUGCUACACAUCGUAUGUACCGAAUCGGGGAAAAAAAGGGGAAAGGGGAAAAAAAGGGGAAAGUAUUAUGUUACGCCGUUCGGAUCUGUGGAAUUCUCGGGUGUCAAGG | 0.602 |
| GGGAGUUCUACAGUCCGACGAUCUCCUGUGCUACACAUCGUAUGUACCGAAUCAAAUUUUUUUAAACCCCCAAAUUUUUAAAAAAGUAUUAUGUUACGCCGUUCGGAUCUGCAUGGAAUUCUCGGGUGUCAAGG | -0.288 |
| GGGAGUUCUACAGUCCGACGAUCUGGCCCUGGUGGCAUGCGGGGAGGAAGAGGUGGCCUCAUGGAUCGUGGUGGCCCCGGUGGAAUGUUCAGAGGUGGCCGUGGUGGAGACAGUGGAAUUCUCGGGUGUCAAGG | 0.3 |
| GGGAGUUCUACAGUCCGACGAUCUAACUUUAGAGGAGGAUCUGACGGAUAUGGCAGUGGACGUGGAUUUGGGGAUGGCUAUAAUGGGUAUGGAGGAGGACCUGGAGGUGGCAAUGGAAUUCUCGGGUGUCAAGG | 0.0557 |

Sample 3
Target: Histone acetyltransferase KAT6A, both winged helices, GST fusion (KAT6A, Homo sapiens, UniProt Q92794, residues 1-181)
Method: protein binding microarray
Molecule type: double-stranded DNA, one strand shown
Sample: in vitro
Tested at: not given
Notes: 8-mer, flanks averaged, mean of 2 arrays, mostly near background
Relative to: not given
Reading: higher = stronger binding
Construct (chain): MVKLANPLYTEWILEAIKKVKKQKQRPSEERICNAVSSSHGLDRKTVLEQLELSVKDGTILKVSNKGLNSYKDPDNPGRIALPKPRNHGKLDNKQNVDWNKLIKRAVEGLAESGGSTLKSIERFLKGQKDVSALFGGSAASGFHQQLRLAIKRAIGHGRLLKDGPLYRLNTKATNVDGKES
| Sequence | E-score |
| --- | --- |
| CGGGCCGC | 0.303 |
| GATGTTTA | -0.0295 |
| AGGCTGCC | -0.12 |
| AAAATTTG | -0.0057 |
| AGGGGGCG | -0.015 |
| AAGGTATC | -0.164 |
| ATCTTTGG | -0.294 |
| CACCAATC | -0.11 |
| ACAAAGTA | -0.209 |
| CACCTCTC | -0.105 |
| GAGTCAGA | 0.0028 |
| ATCACACA | -0.261 |
| CCGCAGTA | 0.109 |
| ACAAACCG | 0.126 |
| GCCGCAGA | 0.196 |
| CCTGCCAA | -0.217 |
| GTTAAGAA | 0.00216 |

Sample 4
Target: RNA binding protein fox-1 homolog 2, RRM domain, GST-SBP tag (RBFOX2, Homo sapiens, UniProt O43251-10, residues 100-194)
Method: RNA Bind-n-Seq
Molecule type: RNA
Sample: in vitro
Tested at: 365 nM
Notes: natural RNA segment, single round, ends assumed
Relative to: no-protein control
Reading: higher = stronger binding
Target sequence (chain): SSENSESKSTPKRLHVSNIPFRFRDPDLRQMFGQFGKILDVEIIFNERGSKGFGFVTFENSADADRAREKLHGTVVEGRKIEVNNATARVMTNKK
| Sequence | RBNS enrichment (R) |
| --- | --- |
| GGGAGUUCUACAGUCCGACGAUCUGUGUGAUUUUUUUUUUAAAUUUAUGUUGCGGAAAGGUAACCACAAAGUUAUGAUGAACUGCAAACAUCCAAAGGAUGUGAGAGUUUUUCUAUGUAUAAUGUUUUAUACAUGGAAUUCUCGGGUGCCAA | 0.325 |
| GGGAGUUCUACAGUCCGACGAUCGUUACUGGAUUAGCUCCCUCCUCCUGUGUGAUGGUACCAUGCAUAGAGUCAAUCAAAUCCUUGUGAUGUUUUGUAUGGACUUUGACAAUAUGUAAAUAAUGUGUAAAGCCUGGAAUUCUCGGGUGCCAA | 0.841 |
| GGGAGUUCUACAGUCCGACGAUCGGUUGUUUUUACAAAUCUCUCUCAGAUAUAUUAUUUUCAUGACAAAAAUGAAGGAGCUUUGUAAAUUUUUUAAAAAUUAUGAAUCGUAUCAAGUAGUUGUUUACAUUUGAUGGAAUUCUCGGGUGCCAA | 1.45 |
| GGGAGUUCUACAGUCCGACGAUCAGGAUUCCCUCCCGGAGACUCGCACGGUGCUCCCUGCUCACGCGUUGUCACAGUUAGUCCGGAAAUGACUGAAACCAGGCAUUCUCCCGGACCUCAGCGUGGGGGAGCCUUGGAAUUCUCGGGUGCCAA | 0.392 |
| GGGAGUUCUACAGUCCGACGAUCGGGUGUAAUUUUUCCCUUAAAAAGGUGUGUGACAACAAGAGAAGUUGCCUGCAUGCCGGUUUAAAUUGUUUAUGUAAAAAUGCUGUUAUAAGACAUAGAUUUAUCCUAGUUGGAAUUCUCGGGUGCCAA | 2.35 |
| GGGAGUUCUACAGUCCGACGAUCAACAGAUAGGACAGGACAGGGCUCUGGGUGCUGUCCAGGGACUAAGGAAUACAGCUAAAUAAACCAAGGGGGCUAGGCCCAGUCAGCCAUUGUACAGAGGCCCAGAUUUCUGGAAUUCUCGGGUGCCAA | 0.532 |
| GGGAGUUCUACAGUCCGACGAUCUAAACCGUAUAUUGAAAAAAACAGAAUGUCACUAAAUGCAUAUUAAGUCAAGUAUUGGAAAGUAUAAAAGAAAAAUCAUUCUGACAAUUUCUAAGCCAGAAGCAAACAAGUGGAAUUCUCGGGUGCCAA | 0.736 |
| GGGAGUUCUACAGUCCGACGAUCCUUGAUCCUUUGACCAAGAAGAUCCAGUCCCAAUAUGUCACCUGUGCUUCAUCUUUGGACUAUAUCUCAGGUGUUUACGUGUCAACUAAUGGGAGCUUACUGGGUUAGAAUGGAAUUCUCGGGUGCCAA | 0.279 |

Some of these lines once more (sample 3):
| Sequence | E-score |
| --- | --- |
| AGGCTGCC | -0.12 |
| CCTGCCAA | -0.217 |
| CGGGCCGC | 0.303 |
